Experimental data of several laboratories.
Each line is one published result; not all experiments were run side by side. Numbers after ± are the reported error.
Substance-P receptor: Substance-P receptor (Cavia porcellus, UniProt P30547)
UniProt P30547, sequence (whole entry, looked up): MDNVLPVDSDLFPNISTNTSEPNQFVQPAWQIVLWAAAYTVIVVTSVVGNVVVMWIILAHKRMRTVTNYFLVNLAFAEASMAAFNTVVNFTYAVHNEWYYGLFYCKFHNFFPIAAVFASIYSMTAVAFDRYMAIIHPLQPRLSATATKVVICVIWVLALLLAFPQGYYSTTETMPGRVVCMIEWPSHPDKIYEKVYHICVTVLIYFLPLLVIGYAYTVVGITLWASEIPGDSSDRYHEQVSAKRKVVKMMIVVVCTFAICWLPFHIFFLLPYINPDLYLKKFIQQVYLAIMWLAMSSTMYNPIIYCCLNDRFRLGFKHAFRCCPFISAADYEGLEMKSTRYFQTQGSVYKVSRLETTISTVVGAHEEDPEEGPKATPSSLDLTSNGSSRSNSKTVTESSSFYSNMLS
gpmI: 2,3-bisphosphoglycerate-independent phosphoglycerate mutase (gpmI, Mycoplasma pneumoniae, UniProt P75167)
2,3-bisphosphoglycerate-independent phosphoglycerate mutase: 2,3-bisphosphoglycerate-independent phosphoglycerate mutase (Wuchereria bancrofti, UniProt B1P0R4)
UniProt P41149, sequence (whole entry, looked up): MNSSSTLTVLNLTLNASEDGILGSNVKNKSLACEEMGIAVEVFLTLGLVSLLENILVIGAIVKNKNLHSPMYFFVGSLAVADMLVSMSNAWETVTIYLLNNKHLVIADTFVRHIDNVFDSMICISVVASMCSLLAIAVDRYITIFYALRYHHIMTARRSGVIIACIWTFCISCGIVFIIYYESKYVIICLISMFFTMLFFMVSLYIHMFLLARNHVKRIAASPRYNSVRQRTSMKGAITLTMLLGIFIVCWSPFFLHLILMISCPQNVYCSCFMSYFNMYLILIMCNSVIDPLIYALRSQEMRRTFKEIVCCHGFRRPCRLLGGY
UniProt P07947, sequence (whole entry, looked up): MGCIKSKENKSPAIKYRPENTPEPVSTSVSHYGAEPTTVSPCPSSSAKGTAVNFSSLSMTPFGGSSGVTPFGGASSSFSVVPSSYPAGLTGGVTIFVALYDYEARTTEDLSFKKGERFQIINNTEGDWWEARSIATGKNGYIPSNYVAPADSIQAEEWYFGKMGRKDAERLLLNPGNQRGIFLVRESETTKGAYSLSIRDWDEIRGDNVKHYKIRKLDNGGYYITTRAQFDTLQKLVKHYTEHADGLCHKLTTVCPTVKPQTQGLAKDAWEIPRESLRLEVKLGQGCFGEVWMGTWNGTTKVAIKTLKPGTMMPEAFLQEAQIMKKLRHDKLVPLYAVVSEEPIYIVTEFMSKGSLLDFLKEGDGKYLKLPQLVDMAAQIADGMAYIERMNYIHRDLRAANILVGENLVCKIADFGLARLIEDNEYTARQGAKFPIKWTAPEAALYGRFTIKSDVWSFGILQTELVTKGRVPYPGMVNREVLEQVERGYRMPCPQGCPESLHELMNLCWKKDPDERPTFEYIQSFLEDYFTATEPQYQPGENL
UniProt P33033, sequence (whole entry, looked up): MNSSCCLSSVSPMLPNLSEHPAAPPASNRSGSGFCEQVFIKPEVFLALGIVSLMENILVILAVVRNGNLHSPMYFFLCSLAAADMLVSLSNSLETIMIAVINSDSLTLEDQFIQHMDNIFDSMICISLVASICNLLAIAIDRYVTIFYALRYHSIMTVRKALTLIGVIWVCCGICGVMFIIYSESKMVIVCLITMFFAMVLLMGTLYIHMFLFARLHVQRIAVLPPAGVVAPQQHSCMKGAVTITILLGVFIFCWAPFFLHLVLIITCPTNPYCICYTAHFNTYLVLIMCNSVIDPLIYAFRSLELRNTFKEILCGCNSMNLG

Cl.Cl.Cl.Cl.Cl.Cl.Cl.Cl.Cl.Cl.Cl.Cl.NC[C@@H]1O[C@H](O[C@H]2[C@@H](O)[C@H](O[C@@H]3[C@@H](O)[C@H](N)C[C@H](N)[C@H]3O[C@H]3O[C@H](CN)[C@@H](O)[C@H](O)[C@H]3N)O[C@@H]2Cn2cc(CCCc3cn(C[C@H]4O[C@@H](O[C@@H]5[C@@H](O)[C@H](N)C[C@H](N)[C@H]5O[C@H]5O[C@H](CN)[C@@H](O)[C@H](O)[C@H]5N)[C@H](O)[C@@H]4O[C@H]4O[C@@H](CN)[C@@H](O)[C@H](O)[C@H]4N)nn3)nn2)[C@H](N)[C@@H](O)[C@@H]1O — binding constant (HIV-1 TAR RNA; RNA binding, ethidium bromide displacement; pH 6.8, TAR RNA 200 nM per strand, together with: ethidium bromide 5 µM): 7.08e+07 M⁻¹
CS(=O)(=O)c1cccc(OCCCC(=O)NC2CC3CC3C2O)c1 (stereo not shown) — EC50 (Transcriptional activator protein LasR (lasR, Pseudomonas aeruginosa, UniProt P25084, Y93F); reporter gene, agonist; Escherichia coli lasB-lux reporter): > 100 µM
N=C(N)NCCC[C@@H]1NC(=O)[C@H](CCCCNC(=O)CC[C@H](NC(=O)CCOCCOCCOCCOCCNC(=O)CC[C@H](NC(=O)CN2CCN(CC(=O)O)CCN(CC(=O)O)CCN(CC(=O)O)CC2)C(=O)NCCOCCOCCOCCOCCC(=O)N[C@@H](CCC(=O)NCCCC[C@@H]2NC(=O)[C@@H](Cc3ccccc3)NC(=O)[C@H](CC(=O)O)NC(=O)CNC(=O)[C@H](CCCNC(=N)N)NC2=O)C(=O)NCCCC[C@@H]2NC(=O)[C@@H](Cc3ccccc3)NC(=O)[C@H](CC(=O)O)NC(=O)CNC(=O)[C@H](CCCNC(=N)N)NC2=O)C(=O)NCCCC[C@@H]2NC(=O)[C@@H](Cc3ccccc3)NC(=O)[C@H](CC(=O)O)NC(=O)CNC(=O)[C@H](CCCNC(=N)N)NC2=O)NC(=O)[C@@H](Cc2ccccc2)NC(=O)[C@H](CC(=O)O)NC(=O)CNC1=O [indium-111 labelled] — tissue uptake (female athymic nude mice, kidney; intravenous, 3 µCi, 72 h, U-87 MG glioma xenograft): 2.31 ± 0.61 %ID/g
Cl.Cl.Cl.Cl.Cl.Cl.Cl.Cl.Cl.Cl.Cl.Cl.NC[C@@H]1O[C@H](O[C@H]2[C@@H](O)[C@H](O[C@@H]3[C@@H](O)[C@H](N)C[C@H](N)[C@H]3O[C@H]3O[C@H](CN)[C@@H](O)[C@H](O)[C@H]3N)O[C@@H]2Cn2cc(COCCCCCCCCOCc3cn(C[C@H]4O[C@@H](O[C@@H]5[C@@H](O)[C@H](N)C[C@H](N)[C@H]5O[C@H]5O[C@H](CN)[C@@H](O)[C@H](O)[C@H]5N)[C@H](O)[C@@H]4O[C@H]4O[C@@H](CN)[C@@H](O)[C@H](O)[C@H]4N)nn3)nn2)[C@H](N)[C@@H](O)[C@@H]1O — binding constant (HIV-1 TAR RNA; RNA binding, ethidium bromide displacement; pH 6.8, TAR RNA 200 nM per strand, together with: ethidium bromide 5 µM): 7.58e+06 M⁻¹
CN(C)CC1CCCCC1(O)c1cccc(O)c1 (stereo not shown) — Papp A-to-B (human P-glycoprotein; Caco-2 TC7 monolayer; 50 µM, 3 h, apical pH 7.4, basolateral pH 7.4, together with: cyclosporine A 10 µM): 15.4 ± 1 ×10⁻⁶ cm/s
N=C(N)NCCC[C@@H]1NC(=O)[C@H](CCCCNC(=O)CNC(=O)CNC(=O)CNC(=O)CC[C@H](NC(=O)CCOCCOCCOCCOCCNC(=O)CC[C@H](NC(=O)CN2CCN(CC(=O)O)CCN(CC(=O)O)CCN(CC(=O)O)CC2)C(=O)NCCOCCOCCOCCOCCC(=O)N[C@@H](CCC(=O)NCC(=O)NCC(=O)NCC(=O)NCCCC[C@@H]2NC(=O)[C@@H](Cc3ccccc3)NC(=O)[C@H](CC(=O)O)NC(=O)CNC(=O)[C@H](CCCNC(=N)N)NC2=O)C(=O)NCC(=O)NCC(=O)NCC(=O)NCCCC[C@@H]2NC(=O)[C@@H](Cc3ccccc3)NC(=O)[C@H](CC(=O)O)NC(=O)CNC(=O)[C@H](CCCNC(=N)N)NC2=O)C(=O)NCC(=O)NCC(=O)NCC(=O)NCCCC[C@@H]2NC(=O)[C@@H](Cc3ccccc3)NC(=O)[C@H](CC(=O)O)NC(=O)CNC(=O)[C@H](CCCNC(=N)N)NC2=O)NC(=O)[C@@H](Cc2ccccc2)NC(=O)[C@H](CC(=O)O)NC(=O)CNC1=O [indium-111 labelled] — tissue uptake (female athymic nude mice, intestine; intravenous, 3 µCi, 72 h, U-87 MG glioma xenograft): 1.22 ± 0.61 %ID/g
CCCC[C@H](NC(=O)[C@H](Cc1ccccc1)NC(=O)CNC(=O)[C@@H](C)NC(=O)[C@@H](N)Cc1ccc(O)cc1)C(=O)N1CCC[C@H]1C(=O)N[C@@H](CC(C)C)C(=O)N[C@@H](Cc1c[nH]c2ccccc12)C(=O)NCc1cc(C(F)(F)F)cc(C(F)(F)F)c1 — Kb (Substance-P receptor; tissue contraction, antagonist): 10 nM
C[C@@H](O)[C@@H]1NC(=O)[C@H](CC(=O)O)NC(=O)[C@@H]2CCCN2C(=O)[C@H](Cc2ccc(O)cc2)NC(=O)CSC[C@@H](C(N)=O)NC(=O)[C@H](Cc2c[nH]cn2)NC(=O)[C@H](Cc2c[nH]c3ccccc23)NC(=O)[C@H](CCC(=O)O)NC(=O)[C@H](CC(=O)O)NC(=O)[C@H](Cc2ccc(O)cc2)N(C)C(=O)[C@H](Cc2ccc(O)cc2)NC(=O)[C@H](Cc2c[nH]c3ccccc23)NC(=O)[C@H](Cc2c[nH]c3ccccc23)NC(=O)[C@H](CC(N)=O)NC1=O — AC50 (gpmI; biochemical): 0.00186 µM
CC(=O)N[C@@H](CCCNC(=N)N)C(=O)N[C@@H](CCCNC(=N)N)C(=O)N[C@H](C(=O)N1Cc2ccccc2C[C@H]1C(N)=O)[C@H](c1ccccc1)c1c[nH]c2ccccc12 — EC50 (Melanocortin receptor 3 (Mus musculus, UniProt P33033); cAMP, agonist, AlphaScreen): > 100 µM
CN[C@](C)(C[18F])C(=O)O — tracer uptake (MDA-MB-468 tumour model; host not given, pancreas; 30 min, tumour-bearing): 42 %ID/g
CC(C)[C@@H]1NC(=O)[C@H](CCC(N)=O)NC(=O)[C@@H](Cc2ccc(O)cc2)NC(=O)CSC[C@@H](C(N)=O)NC(=O)[C@H](CC(=O)O)NC(=O)[C@H](CCC(=O)O)NC(=O)[C@H](Cc2c[nH]c3ccccc23)NC(=O)[C@@H]2CCCN2C(=O)[C@H](CO)N(C)C(=O)[C@H](C)NC(=O)[C@H](Cc2c[nH]c3ccccc23)NC(=O)[C@H](Cc2c[nH]c3ccccc23)NC(=O)[C@H](C(C)C)NC(=O)[C@H]([C@@H](C)O)NC1=O — AC50 (2,3-bisphosphoglycerate-independent phosphoglycerate mutase; biochemical): 12 µM
CC(=O)N[C@@H](CCCNC(=N)N)C(=O)N[C@@H](CCCNC(=N)N)C(=O)N[C@H](Cc1ccc(I)cc1)C(=O)N[C@@H](C(N)=O)[C@@H](c1ccccc1)c1c[nH]c2ccccc12 — EC50 (Melanocortin receptor 5 (Mus musculus, UniProt P41149); cAMP, agonist, AlphaScreen): 0.65 µM
CC(C)[C@@H]1NC(=O)[C@H](CO)NC(=O)[C@H](Cc2c[nH]c3ccccc23)NC(=O)[C@H](CCC(=O)O)NC(=O)[C@H](CC(=O)O)NC(=O)[C@H](Cc2ccc(O)cc2)NC(=O)[C@H](Cc2ccc(O)cc2)NC(=O)[C@H](Cc2c[nH]c3ccccc23)NC(=O)[C@H](Cc2c[nH]c3ccccc23)NC(=O)[C@H](CC(=O)O)NC(=O)CNC(=O)[C@H](CO)NC(=O)[C@@H](Cc2ccc(O)cc2)NC(=O)CSC[C@@H](C(N)=O)NC(=O)CNC(=O)[C@H](Cc2ccccc2)NC(=O)[C@H](C)NC1=O — AC50 (2,3-bisphosphoglycerate-independent phosphoglycerate mutase; biochemical): 56.2 µM
CCCC[C@H](NC(=O)[C@H](Cc1ccccc1)NC(=O)CNC(=O)[C@@H](C)NC(=O)[C@@H](N)Cc1ccc(O)cc1)C(=O)N[C@@H](CO[C@@H]1O[C@H](CO)[C@@H](O)[C@H](O)[C@H]1O)C(=O)N[C@@H](CC(C)C)C(=O)N[C@@H](Cc1c[nH]c2ccccc12)C(=O)NCc1cc(C(F)(F)F)cc(C(F)(F)F)c1 — Kb (Substance-P receptor; tissue contraction, antagonist): 18 nM
C[C@@H](O)[C@@H]1NC(=O)[C@H](CC(=O)O)NC(=O)[C@@H]2CCCN2C(=O)[C@H](Cc2ccc(O)cc2)NC(=O)CSC[C@@H](C(N)=O)NC(=O)[C@H](Cc2c[nH]cn2)NC(=O)[C@H](Cc2c[nH]c3ccccc23)NC(=O)[C@H](CCC(=O)O)NC(=O)[C@H](CC(=O)O)NC(=O)[C@H](Cc2ccc(O)cc2)NC(=O)[C@H](Cc2ccc(O)cc2)NC(=O)[C@H](Cc2c[nH]c3ccccc23)NC(=O)[C@H](Cc2c[nH]c3ccccc23)NC(=O)[C@H](CC(N)=O)NC1=O — AC50 (gpmI; biochemical): 3.8 µM
CNC(=O)C1CCN(c2ccccc2NC(=O)c2ccc(-c3cc(O)ccc3C)c(C)n2)CC1 — Ki (Tyrosine-protein kinase Yes (YES1, Homo sapiens, UniProt P07947); cell-free assay, TR-FRET): 0.2 nM

For quick reference, copied from above:
CS(=O)(=O)c1cccc(OCCCC(=O)NC2CC3CC3C2O)c1 (stereo not shown) — EC50 (Transcriptional activator protein LasR (lasR, Pseudomonas aeruginosa, UniProt P25084, Y93F); reporter gene, agonist; Escherichia coli lasB-lux reporter): > 100 µM
